Measured values gathered from unrelated publications.
Each numbered part is a random draw from the data of one study; scales do not carry over between parts.

Series 1
Target: Sal-like protein 4, full length isoform A (SALL4, Homo sapiens, UniProt Q9UJQ4, residues 1-1053)
Chain of UniProt Q9UJQ4 (whole entry, looked up): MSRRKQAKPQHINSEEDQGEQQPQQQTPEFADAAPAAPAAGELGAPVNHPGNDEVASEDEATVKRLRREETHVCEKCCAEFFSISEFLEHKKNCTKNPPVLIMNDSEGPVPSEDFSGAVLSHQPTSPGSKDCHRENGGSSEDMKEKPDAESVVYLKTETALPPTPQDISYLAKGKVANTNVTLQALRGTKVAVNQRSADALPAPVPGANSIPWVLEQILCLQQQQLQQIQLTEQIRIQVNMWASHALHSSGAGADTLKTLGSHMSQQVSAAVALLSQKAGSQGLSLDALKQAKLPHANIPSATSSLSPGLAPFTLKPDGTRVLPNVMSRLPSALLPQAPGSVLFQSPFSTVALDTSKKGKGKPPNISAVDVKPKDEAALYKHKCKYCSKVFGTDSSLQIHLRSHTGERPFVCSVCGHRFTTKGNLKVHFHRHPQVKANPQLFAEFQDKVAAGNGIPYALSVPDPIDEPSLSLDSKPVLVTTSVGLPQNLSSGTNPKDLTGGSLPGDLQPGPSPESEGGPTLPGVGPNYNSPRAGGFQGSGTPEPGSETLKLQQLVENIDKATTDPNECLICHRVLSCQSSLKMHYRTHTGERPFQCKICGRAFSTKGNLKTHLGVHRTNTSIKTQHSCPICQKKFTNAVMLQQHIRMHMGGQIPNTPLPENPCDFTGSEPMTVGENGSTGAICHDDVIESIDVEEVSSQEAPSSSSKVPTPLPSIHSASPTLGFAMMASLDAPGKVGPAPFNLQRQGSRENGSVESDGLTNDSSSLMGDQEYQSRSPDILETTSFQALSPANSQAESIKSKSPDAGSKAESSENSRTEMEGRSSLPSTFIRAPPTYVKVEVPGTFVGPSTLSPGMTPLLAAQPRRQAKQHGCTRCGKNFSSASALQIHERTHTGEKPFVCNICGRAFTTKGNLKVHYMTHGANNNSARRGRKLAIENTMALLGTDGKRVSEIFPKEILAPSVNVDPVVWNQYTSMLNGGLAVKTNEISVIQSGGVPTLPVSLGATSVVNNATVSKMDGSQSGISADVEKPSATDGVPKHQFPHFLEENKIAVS
Technique: universal PBM
Molecule type: double-stranded DNA, one strand shown
Matrix: in vitro
Tested at: 600 nM
Setting: 8-mer, flanks averaged, mean of replicates
Direction: higher = stronger binding
Sequence	E-score
CTTGGAAA	0.045
ACACTGCC	-0.0471
CGAACGCG	-0.138
GGCGAACC	-0.263
ATCATTAA	0.337

Series 2
Target: Protein max, full length (MAX, Homo sapiens, UniProt P61244-2, residues 1-151)
Technique: protein-binding microarray
Molecule type: double-stranded DNA, one strand shown
Matrix: in vitro
Tested at: not given
Setting: k-mer, scored over probes, only values ≥0.25
Direction: higher = stronger binding
Sequence	E-score
ACGCATGA	0.398
CCCTCACG	0.287
ACCACGAT	0.287
GCCATGCA	0.315

Series 3
Target: Fragile X messenger ribonucleoprotein 1, C-terminal low-complexity region (Fmr1, Mus musculus, UniProt P35922)
Technique: RNA Bind-n-Seq
Molecule type: RNA
Matrix: in vitro
Tested at: 200 nM
Setting: whole 134-nt RNA, ends assumed
Together with: 150 mM KCl
Relative to: input library
Direction: higher = stronger binding
Sequence	log2 enrichment
GGGAGUUCUACAGUCCGACGAUCUCGCCCUGGUGGCAUGCGGGGAGGAAGAGGUGGCCUCAUGGAUCGUGGUGGUCCCGGUGGAAUGUUCAGAGGUGGCCGUGGUGGAGACAGUGGAAUUCUCGGGUGUCAAGG	-0.0664
GGGAGUUCUACAGUCCGACGAUCUCCUGUGCUACACAUCGUAUGUACCGAAUCGGGUUUUUUGGGGUUUUUUGGUUUUUUGGGAAAGUAUUAUGUUACGCCGUUCGGAUCUGCUGGAAUUCUCGGGUGUCAAGG	0.11
GGGAGUUCUACAGUCCGACGAUCUAACUUUAGAGGAGGAUCUGAUGGAUAUUGCAGUGGACGUGGAUUUGGGGAUGGCUAUAAUGGGUAUGGAGGAGGACCUGGAGGUGGCAAUGGAAUUCUCGGGUGUCAAGG	0.344
GGGAGUUCUACAGUCCGACGAUCUUCCGGAAGAAGAAGCUCCGAUUUGGCCGGAGCCGGAUCCACGAGUGGGGUCUGUUUGCCAUGGAACCCAUUGCUGCUGACGAGAUGGUCUGGAAUUCUCGGGUGUCAAGG	-1.44

Mixed results
Substance	target	assay	test system	conditions	how to read	quantity	result
PhoQ, residues 284 288 289 292 302 303 TASMAF	PhoP, residues 12 14 15 18 19 LFHKL (Escherichia coli, UniProt P23836)	Sort-seq, item: YFP reporter	E. coli	PhoQ-PhoP variant library, together with: 10 µM Mg2+	relative to: high Mg2+ state, higher = stronger signaling	fold induction	12.1
